Experimental data collected from several papers.
Lines come from different studies, so protocols differ. Several values in a cell are separate wells, animals, samples, runs or records. ± marks the error that the study gave.

`CN1CCC[C@]1(C)/C=C/S(=O)(=O)NC(=O)Nc1c2c(cc3c1CCC3)CCC2` has an inhibition of 97.2% (IL-18 release; human, whole blood ex vivo; oral, 100 mg twice daily, day 14, 336 h, multiple ascending dose, added: LPS and ATP).
For `CC(=O)[O-].O.[Cu+2].[O-]c1ccc(Br)cc1C=NCCN1CCOCC1`, “ferric reducing power” read 66.7% (FRAP; 240 µM).
Under “log2 fold change”, `COC1CN([C@H]2CC[C@H]([C@@]3(C)Oc4c(Cl)cc(C(=O)NCc5c(SC)cc(C)[nH]c5=O)c(C)c4O3)CC2)C1` is recorded as 1.07 (RNA-seq, item: EPB41L4A mouse homolog; mouse, HT-1376 xenograft, whole blood; dose not given; reference: vehicle).
Under “LTB4 isomers level”, `COc1cc(O)ccc1CCC(c1ccc(O)cc1)c1cc2c(c(C)c1O)OC(c1ccc(O)cc1)CC2` (mixture of isomers) is recorded as 258 ± 81 pg/mL (human blood; 1 µM, added: A23187).
With `CCCCCCCCCCCCCCCC(=O)OCC(CSC[C@H](N)C(=O)N[C@@H](CO)C(=O)N[C@@H](CCCCN)C(=O)N[C@@H](CCCCN)C(=O)N[C@@H](CCCCN)C(=O)N[C@@H](CCCCN)C(=O)NCCCCCC(=O)N[C@@H](CCCCN)C(=O)N[C@@H](CC(C)C)C(=O)N[C@H](C(=O)N[C@@H](Cc1ccccc1)C(=O)N[C@@H](Cc1ccccc1)C(=O)N[C@@H](Cc1ccc2ccccc2c1)C(=O)O)C(C)C)OC(=O)CCCCCCCCCCCCCCC` (stereo partly shown) the Iba1 level was 2.38 and 2.4 and 3.39 and 4.64 and 3.61 and 2.99 and 5.47 (APP/PS1 transgenic mouse, cortex; local cortical injection, dose not given, unit not given; reference: injected over adjacent side).
`COCCOCCOCCNC(=O)Cc1cc(CC(=O)N[C@H]2C[C@H]3C(=O)Nc4cc(OCCOCCOCCOC)cc(n4)C(=O)N4CCC[C@H]4C(=O)Nc4cc(OCCOCCOCCOC)cc(n4)C(=O)N4CCC[C@H]4C(=O)Nc4cc(OCCOCCOCCOC)cc(n4)C(=O)N3C2)cc(CC(=O)N[C@H]2C[C@H]3C(=O)Nc4cc(OCCOCCOCCOC)cc(n4)C(=O)N4CCC[C@H]4C(=O)Nc4cc(OCCOCCOCCOC)cc(n4)C(=O)N4CCC[C@H]4C(=O)Nc4cc(OCCOCCOCCOC)cc(n4)C(=O)N3C2)c1` has a ΔH of 0.406 ± 0.0478 kcal/mol (anion binding, ITC; water/acetonitrile 95 vol% (98.2 mol%); 298 K, added: sodium sulfate).
For `O=[N+]([O-])[O-].O=c1c(C=NN=C([S-])Nc2ccccc2)coc2ccccc12.[Cu+2].c1cnc2c(c1)ccc1cccnc12`, “supercoiled DNA form” read 81% (DNA cleavage; supercoiled pUC19 DNA; 100 µM, 4 h, 37 °C, no reducing agent, added: DNA 40 µM).
`O=S(=O)(NCc1ccncc1)c1ccc(C2CCCCC2)cc1` — result for “tubulin β3 immunoreactivity”: roughly 2.2 fold (immunohistochemistry; CK-p25 mice male, hippocampal pyramidal layer; ip, 0.3 mg/kg daily, 2 wk; reference: vehicle).
Under “LTB4 isomers level”, `COc1ccc(C(=O)CCc2cc(C(CCc3ccc(O)cc3OC)c3ccc(O)cc3)c(O)cc2OC)cc1` (racemic) is recorded as 337 ± 120 pg/mL (human blood; 1 µM, added: A23187).
For `COc1c(Cl)cccc1Nc1c(-c2ccncc2C#C[C@@]2(C)CCCN2C(=O)/C=C/CN(C)C)[nH]c2c1C(=O)NCC2`, “tumour growth inhibition” read 110% (female BALB/c nude mouse, sample A PDX; 50 mg/kg once daily, 28 days, EGFR ASV).

Some of these lines once more:
Under “log2 fold change”, `COC1CN([C@H]2CC[C@H]([C@@]3(C)Oc4c(Cl)cc(C(=O)NCc5c(SC)cc(C)[nH]c5=O)c(C)c4O3)CC2)C1` is recorded as 1.07 (RNA-seq, item: EPB41L4A mouse homolog; mouse, HT-1376 xenograft, whole blood; dose not given; reference: vehicle).
Under “LTB4 isomers level”, `COc1cc(O)ccc1CCC(c1ccc(O)cc1)c1cc2c(c(C)c1O)OC(c1ccc(O)cc1)CC2` (mixture of isomers) is recorded as 258 ± 81 pg/mL (human blood; 1 µM, added: A23187).
